Assay results of several laboratories.
A part holds a random share of what one study measured.

Sample 1
Target: RNA binding protein fox-1 homolog 2, RRM domain, GST-SBP tag (RBFOX2, Homo sapiens, UniProt O43251-10, residues 100-194)
Technique: RNA Bind-n-Seq
Molecule type: RNA
Medium: in vitro
Concentration: 365 nM
Notes: natural RNA segment, single round, ends assumed
Baseline: no-protein control
Direction: higher = stronger binding
Construct (chain): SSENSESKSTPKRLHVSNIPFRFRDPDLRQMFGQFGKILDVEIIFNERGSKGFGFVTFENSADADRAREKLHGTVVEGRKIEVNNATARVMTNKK
Strand | RBNS enrichment (R)
GGGAGUUCUACAGUCCGACGAUCCCCUCCAUGAAGUCAGUGCCAGAGUGAGCCAGAUUGGGAGGUUGGGGUUUUGUUUGGUUGGCUUGGUUUUCAUUAAGGGAAAAAACUUGCAUUGGACAAUCAAAUUCCCCUGGAAUUCUCGGGUGCCAA | 0.87
GGGAGUUCUACAGUCCGACGAUCCCCUCUGAAGGCCAGGAGCCCGCGGGAGGAGAUCCUGUAGCCACCUGGUCUGUCUCCUCAGGGCAGGGCCCAGCACACUGCCCGGCCAGUCCUCCUACCUCCCGAGUCUGUGGAAUUCUCGGGUGCCAA | 0.501
GGGAGUUCUACAGUCCGACGAUCUACACAUACGUAUGUUAGGAAAAUAGGCACACUUUCAAAGAGAAUGUUCUCUUACACAUACGUAUGUUAGGAAAAUAGACACAUUUUCAAAGAGAAUGUUCUCUUACAUAUGGAAUUCUCGGGUGCCAA | 0.313
GGGAGUUCUACAGUCCGACGAUCCACAUCUUACCGAGGAAAGGAGGCAAGGAAGUGCCCUUUUGUGUCUCCUCAUUGUUCACAGCCUGUUGGUCUCGAACACUCAACAUAUGAUUGCUCGAUCACUUUAGAUAUGGAAUUCUCGGGUGCCAA | 0.295

Sample 2
Target: Histone acetyltransferase KAT6A, winged helix 1, GST fusion (KAT6A, Homo sapiens, UniProt Q92794, residues 1-85)
Technique: protein binding microarray
Molecule type: double-stranded DNA, one strand shown
Medium: in vitro
Concentration: not given
Notes: 8-mer, flanks averaged, mean of 2 arrays, mostly near background
Baseline: not given
Direction: higher = stronger binding
Residues (chain): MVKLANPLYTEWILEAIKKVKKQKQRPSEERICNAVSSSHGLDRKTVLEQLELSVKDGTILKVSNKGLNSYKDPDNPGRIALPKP
Strand | E-score
CACCGTGA | 0.0716
CCGTGTGC | 0.262
ATACAAGG | -0.228
GTTGACAA | -0.0537
CCCTACGA | -0.153

Sample 3
Target: Phosphate system positive regulatory protein PHO4, full length, GST-tagged (PHO4, Saccharomyces cerevisiae, UniProt P07270, residues 1-312)
Technique: competition protein-binding microarray
Molecule type: double-stranded DNA, one strand shown
Medium: in vitro
Concentration: 2 µM
Notes: whole 60-bp probe, lowest competitor level
With: Cbf1 competitor, 0.05 µM
Direction: higher = stronger binding
Constant ends, left off below: … GTCTTGATTCGCTTGACGCTGCTG
Residues (chain): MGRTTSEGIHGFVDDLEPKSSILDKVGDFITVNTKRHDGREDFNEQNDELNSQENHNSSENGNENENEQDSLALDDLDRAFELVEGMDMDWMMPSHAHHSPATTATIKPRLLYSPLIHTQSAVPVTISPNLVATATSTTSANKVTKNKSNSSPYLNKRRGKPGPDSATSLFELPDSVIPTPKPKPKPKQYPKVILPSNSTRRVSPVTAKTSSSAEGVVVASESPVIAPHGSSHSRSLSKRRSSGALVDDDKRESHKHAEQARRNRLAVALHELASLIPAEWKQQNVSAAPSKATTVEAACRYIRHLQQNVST
Strand | fluorescence intensity [a.u.]
AAATTACTAAGTTGTCGGGTGGGTGACGCCGTATGA | 4170
CGGGGTTAAGTTTGTCACGCCACTTGCTTGCAGCAG | 5750
ATTGATCCCTGCTGTCATGCCCCTCACCTTCATTCG | 5510
TACGACGGCATTGGGCCCGTGGGTACTCACCGGGTT | 8550
GTCTTGTCTCATTGACCAGTGGGTGTCCCCACTTCA | 4530
CGTCCTAGTGATTGCTTGGTGGGTGCCATGAGGAAG | 6230
CTAAAAGTGCATTACGACCTGCATCTCCAGTAGTTT | 4420

Further values, each from its own experiment
Substance | target | assay | test system | conditions | scale | measurement | result
PhoQ, residues 284 288 289 292 302 303 AGHLVA | PhoP, residues 12 14 15 18 19 IFFTR (Escherichia coli, UniProt P23836) | Sort-seq, measured: YFP reporter | E. coli | PhoQ-PhoP variant library, with: 10 µM Mg2+ | baseline: high Mg2+ state, higher = stronger signaling | fold induction | 2.34
